Results collected from several papers.
Every numbered part comes from another study and shows a few of its results, in no order. Substitutions count along the parent as printed.

Series 1
Target: CCNA1, cyclin fold, Cln2 fusion (human)
Technique: yeast growth competition, sequencing
Sample: yeast
Setting: weak parent motif
Relative to: not given
Reading: higher = stronger binding
Starting sequence: E2F1 docking peptide (human); PPVKRRLDLETDH
Change | normalised enrichment score
P2D | 0.554
K4P | 0.219
T11L | 0.457
K4V | 0.572
L7M | 0.451
L7C | 0.297
R5S | -0.045

Series 2
Target: Prothrombin, mature alpha-thrombin (F2, Homo sapiens, UniProt P00734)
Technique: aptamer microarray, sandwich
Form: DNA with 2'F-ANA
Sample: in vitro
Concentration: 200 nM
Setting: whole 15-mer aptamer, many near background
Added: Cy3 exosite-II aptamer, 400 nM
Reading: higher = stronger binding
Strand: GGTTGGTGTGGTTGG
Modification | mean fluorescence intensity
2'F-ANA at 1 2 5 6 7 9 10 11 12 | 51.2 a.u.
2'F-ANA at 1 2 3 4 8 10 12 | 77.7 a.u.
2'F-ANA at 1 2 3 5 6 7 12 13 | 80.8 a.u.
2'F-ANA at 3 5 7 8 11 13 14 15 | 79.7 a.u.
2'F-ANA at 1 4 6 9 11 15 | 85.7 a.u.
2'F-ANA at 1 6 7 8 9 12 14 15 | 76.9 a.u.
2'F-ANA at 2 4 5 7 8 12 15 | 169 a.u.
2'F-ANA at 1 2 3 4 6 8 10 12 | 66.6 a.u.
2'F-ANA at 1 3 7 10 13 | 73.2 a.u.
2'F-ANA at 2 14 | 172 a.u.
2'F-ANA at 1 3 4 6 8 10 11 12 15 | 71.3 a.u.

Series 3
Target: Interferon regulatory factor 7, full length, phosphomimetic (IRF7, Homo sapiens, UniProt Q92985, residues 1-503, S101K/S471D/S472D/S475D/S476D/S477D/S483D/S484D/S487D)
Sequence of UniProt Q92985 (whole entry, unmodified, looked up): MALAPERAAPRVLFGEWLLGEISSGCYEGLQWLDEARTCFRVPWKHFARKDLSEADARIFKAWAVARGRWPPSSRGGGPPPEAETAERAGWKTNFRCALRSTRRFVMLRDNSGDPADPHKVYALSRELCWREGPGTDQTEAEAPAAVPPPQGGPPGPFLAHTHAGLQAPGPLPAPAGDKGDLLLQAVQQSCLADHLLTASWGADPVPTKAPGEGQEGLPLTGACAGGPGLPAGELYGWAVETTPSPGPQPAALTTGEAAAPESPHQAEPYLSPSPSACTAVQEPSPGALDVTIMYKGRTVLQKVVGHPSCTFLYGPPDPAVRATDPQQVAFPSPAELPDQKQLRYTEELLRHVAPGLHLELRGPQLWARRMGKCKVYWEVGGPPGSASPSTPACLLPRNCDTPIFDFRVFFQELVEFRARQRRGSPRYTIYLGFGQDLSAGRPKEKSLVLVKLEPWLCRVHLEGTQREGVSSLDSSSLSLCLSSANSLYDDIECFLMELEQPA
Technique: protein-binding microarray
Form: double-stranded DNA, one strand shown
Sample: in vitro
Concentration: 250 nM
Setting: 60-bp whole probe
Added: salmon DNA 0.4 mg/ml
Relative to: random background probes
Reading: higher = stronger binding
Constant ends, left off below: GCCTAGCAC … GTCTTGATTCGCTTGACGCTGCTG
Strand | log fluorescence
TTAGGTATCGACTATCGGGTAGTGCTA | 0.0917 z-score
TTAGGTATCGGTTTCGGTTGGTGCTAG | 10.7 z-score
GGGGCTTGGGAGAGGCATCCGTGCTAG | -0.788 z-score
TTAGGACTGCTACTGCTTAAGTGCTAG | -0.724 z-score
TTAGATCTCAAACTGGATTAGTGCTAG | 0.206 z-score
TTAGGTATCGCTTTCGGTTAGTGCTAG | 5.03 z-score
TTAGGTTTCGGTGCCGGTTAGTGCTAG | 2.97 z-score
AGTGGAGTTCATTGTCATTTGTGCTAG | 0.233 z-score
GACGGTATCGACTAACGGGACGTGCTA | 0.0814 z-score
TCACCCCTCCCCCTCAGACTGTGCTAG | -0.177 z-score
TTAAGTTTCGGTTCCGGTTAGTGCTAG | 12.7 z-score
TTAGGTATCGGGCTGGGTTAGTGCTAG | -0.245 z-score
GAAGGTATCGGACTGGGGACGTGCTAG | -0.222 z-score
GACGGACTGGGGACTAGGGACGTGCTA | -0.0626 z-score
CGGGGGTGGGGAGAGCCCCTGTGCTAG | 2.86 z-score
TTAGGTATCGCCTATCGGTTAGTGCTA | -0.109 z-score

Other studies, line by line
Substance | target | test | test system | conditions | scale | endpoint | result
PhoQ, residues 284 288 289 292 302 303 NLCILV | PhoP, residues 12 14 15 18 19 SYFRT (Escherichia coli, UniProt P23836) | Sort-seq, measured: YFP reporter | E. coli | PhoQ-PhoP variant library, added: 10 µM Mg2+ | relative to: high Mg2+ state, higher = stronger signaling | fold induction | 13.3

Excerpt of the above (series 1):
Change | normalised enrichment score
K4V | 0.572
P2D | 0.554
L7M | 0.451
L7C | 0.297
T11L | 0.457
